{"data": "Measurements collected from several papers", "note": "Numbered parts are unrelated; each lists some results of a single study.", "sequence of UniProt P32298 (whole entry, looked up)": "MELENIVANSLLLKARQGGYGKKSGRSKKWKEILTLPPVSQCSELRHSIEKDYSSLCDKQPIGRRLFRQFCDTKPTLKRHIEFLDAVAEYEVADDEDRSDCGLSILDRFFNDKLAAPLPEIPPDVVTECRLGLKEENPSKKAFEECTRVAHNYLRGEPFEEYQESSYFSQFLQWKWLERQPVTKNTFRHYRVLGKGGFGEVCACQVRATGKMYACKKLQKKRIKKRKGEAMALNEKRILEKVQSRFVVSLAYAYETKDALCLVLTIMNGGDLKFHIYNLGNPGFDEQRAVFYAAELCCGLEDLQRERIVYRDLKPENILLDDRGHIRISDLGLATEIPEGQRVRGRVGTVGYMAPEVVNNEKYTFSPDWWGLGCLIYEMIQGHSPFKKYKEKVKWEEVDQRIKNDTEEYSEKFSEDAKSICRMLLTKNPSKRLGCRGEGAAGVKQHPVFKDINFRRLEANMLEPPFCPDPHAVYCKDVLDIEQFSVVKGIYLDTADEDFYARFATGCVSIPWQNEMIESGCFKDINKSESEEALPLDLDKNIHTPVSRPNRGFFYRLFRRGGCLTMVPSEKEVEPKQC", "sequence of UniProt P33981 (whole entry, looked up)": "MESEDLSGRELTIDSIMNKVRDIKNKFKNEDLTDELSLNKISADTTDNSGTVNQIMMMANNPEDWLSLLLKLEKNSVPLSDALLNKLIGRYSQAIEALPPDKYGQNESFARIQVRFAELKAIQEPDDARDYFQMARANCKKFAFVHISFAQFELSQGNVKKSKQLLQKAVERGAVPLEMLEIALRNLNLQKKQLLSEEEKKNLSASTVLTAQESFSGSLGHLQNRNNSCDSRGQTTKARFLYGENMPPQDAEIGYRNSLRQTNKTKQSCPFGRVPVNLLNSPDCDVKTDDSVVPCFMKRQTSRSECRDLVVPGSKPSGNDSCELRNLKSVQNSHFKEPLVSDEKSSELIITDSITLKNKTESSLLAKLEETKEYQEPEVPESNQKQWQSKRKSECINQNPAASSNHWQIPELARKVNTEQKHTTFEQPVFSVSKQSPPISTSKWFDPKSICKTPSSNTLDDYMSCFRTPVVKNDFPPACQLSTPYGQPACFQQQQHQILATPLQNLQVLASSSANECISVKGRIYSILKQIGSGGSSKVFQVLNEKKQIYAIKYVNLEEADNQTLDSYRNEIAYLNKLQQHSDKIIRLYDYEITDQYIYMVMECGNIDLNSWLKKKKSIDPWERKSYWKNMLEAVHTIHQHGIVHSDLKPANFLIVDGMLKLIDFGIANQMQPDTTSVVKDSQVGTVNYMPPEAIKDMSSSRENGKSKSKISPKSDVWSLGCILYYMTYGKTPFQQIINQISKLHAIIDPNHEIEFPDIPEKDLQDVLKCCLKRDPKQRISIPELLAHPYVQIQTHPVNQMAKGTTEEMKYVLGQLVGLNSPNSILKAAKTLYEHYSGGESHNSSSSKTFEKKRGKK", "sequence of UniProt Q9UKI8 (whole entry, looked up)": "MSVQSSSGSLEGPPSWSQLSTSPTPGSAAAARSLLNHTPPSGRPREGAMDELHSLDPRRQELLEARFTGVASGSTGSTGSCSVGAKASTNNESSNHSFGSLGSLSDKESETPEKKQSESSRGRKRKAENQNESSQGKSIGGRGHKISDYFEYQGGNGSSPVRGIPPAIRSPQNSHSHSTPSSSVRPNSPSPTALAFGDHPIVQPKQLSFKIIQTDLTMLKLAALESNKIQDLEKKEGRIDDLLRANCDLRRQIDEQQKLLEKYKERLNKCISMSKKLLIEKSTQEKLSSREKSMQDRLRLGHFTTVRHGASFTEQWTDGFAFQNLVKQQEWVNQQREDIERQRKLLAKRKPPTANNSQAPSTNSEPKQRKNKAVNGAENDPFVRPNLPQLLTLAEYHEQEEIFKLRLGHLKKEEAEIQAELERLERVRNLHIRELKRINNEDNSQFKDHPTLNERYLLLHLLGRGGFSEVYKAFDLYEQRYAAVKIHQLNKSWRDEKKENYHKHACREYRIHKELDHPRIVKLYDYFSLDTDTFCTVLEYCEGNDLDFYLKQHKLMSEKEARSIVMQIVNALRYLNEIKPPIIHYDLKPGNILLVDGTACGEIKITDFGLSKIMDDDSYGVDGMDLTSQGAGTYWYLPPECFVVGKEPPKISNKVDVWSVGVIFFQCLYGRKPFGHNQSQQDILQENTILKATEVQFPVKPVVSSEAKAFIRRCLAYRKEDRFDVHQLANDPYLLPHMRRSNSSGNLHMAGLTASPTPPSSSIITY", "sequence of UniProt P54756 (whole entry, looked up)": "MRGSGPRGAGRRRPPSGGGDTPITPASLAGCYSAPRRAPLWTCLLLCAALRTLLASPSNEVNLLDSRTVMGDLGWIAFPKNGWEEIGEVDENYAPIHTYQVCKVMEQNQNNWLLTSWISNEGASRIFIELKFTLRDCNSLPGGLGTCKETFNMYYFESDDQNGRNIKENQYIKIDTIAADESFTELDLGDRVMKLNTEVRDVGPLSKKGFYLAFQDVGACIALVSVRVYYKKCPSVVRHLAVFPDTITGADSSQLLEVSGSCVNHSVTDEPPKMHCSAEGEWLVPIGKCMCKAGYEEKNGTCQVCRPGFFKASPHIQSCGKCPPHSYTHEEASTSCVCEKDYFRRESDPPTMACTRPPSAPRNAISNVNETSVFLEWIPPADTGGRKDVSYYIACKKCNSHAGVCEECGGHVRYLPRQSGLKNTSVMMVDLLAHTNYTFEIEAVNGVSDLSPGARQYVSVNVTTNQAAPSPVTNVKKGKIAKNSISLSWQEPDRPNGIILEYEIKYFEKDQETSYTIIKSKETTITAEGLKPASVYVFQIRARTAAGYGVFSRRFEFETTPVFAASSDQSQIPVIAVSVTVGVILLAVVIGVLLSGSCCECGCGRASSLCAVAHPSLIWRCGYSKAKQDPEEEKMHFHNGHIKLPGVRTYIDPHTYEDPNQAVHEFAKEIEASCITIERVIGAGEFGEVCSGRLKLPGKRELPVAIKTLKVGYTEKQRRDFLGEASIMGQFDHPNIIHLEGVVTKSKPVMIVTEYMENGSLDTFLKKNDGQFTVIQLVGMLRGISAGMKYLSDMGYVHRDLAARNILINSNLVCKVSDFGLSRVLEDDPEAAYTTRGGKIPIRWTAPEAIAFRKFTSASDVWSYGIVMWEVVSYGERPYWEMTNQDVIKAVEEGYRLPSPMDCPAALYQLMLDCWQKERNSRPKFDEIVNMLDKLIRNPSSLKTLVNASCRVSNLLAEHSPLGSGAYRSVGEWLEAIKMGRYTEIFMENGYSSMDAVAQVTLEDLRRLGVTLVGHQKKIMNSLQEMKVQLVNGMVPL", "sequence of UniProt Q15139 (whole entry, looked up)": "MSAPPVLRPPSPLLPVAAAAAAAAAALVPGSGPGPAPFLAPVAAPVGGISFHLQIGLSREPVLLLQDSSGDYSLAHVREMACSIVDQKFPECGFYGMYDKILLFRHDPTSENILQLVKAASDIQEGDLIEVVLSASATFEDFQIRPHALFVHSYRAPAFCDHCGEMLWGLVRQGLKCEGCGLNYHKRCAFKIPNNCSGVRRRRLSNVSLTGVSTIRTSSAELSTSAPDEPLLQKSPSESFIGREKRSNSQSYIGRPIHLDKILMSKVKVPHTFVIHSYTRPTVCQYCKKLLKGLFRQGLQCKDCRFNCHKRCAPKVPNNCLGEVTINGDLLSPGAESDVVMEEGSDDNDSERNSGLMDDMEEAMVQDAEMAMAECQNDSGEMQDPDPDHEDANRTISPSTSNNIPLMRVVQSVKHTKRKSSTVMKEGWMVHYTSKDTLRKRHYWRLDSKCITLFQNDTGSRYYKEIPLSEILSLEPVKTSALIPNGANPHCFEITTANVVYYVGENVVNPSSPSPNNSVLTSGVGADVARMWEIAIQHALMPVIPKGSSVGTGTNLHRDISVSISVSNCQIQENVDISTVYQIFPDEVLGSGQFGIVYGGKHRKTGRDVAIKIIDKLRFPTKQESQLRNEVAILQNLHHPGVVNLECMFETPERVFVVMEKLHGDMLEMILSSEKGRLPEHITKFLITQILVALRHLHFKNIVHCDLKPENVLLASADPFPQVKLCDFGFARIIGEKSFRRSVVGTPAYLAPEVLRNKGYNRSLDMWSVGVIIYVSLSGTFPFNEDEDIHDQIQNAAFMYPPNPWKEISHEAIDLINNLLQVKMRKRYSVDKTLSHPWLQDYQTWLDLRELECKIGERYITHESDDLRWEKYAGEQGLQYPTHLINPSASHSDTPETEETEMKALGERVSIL"}
{"data": "Series 1", "SMILES": "CCC(=N\\O)/C(C)=C/c1ccc(F)cc1", "observed": "cell-free assay", "method": "competition with immobilised ligand", "tested at": "1 µM"}
{"target": "Mitogen-activated protein kinase kinase kinase 9 (MAP3K9, Homo sapiens, UniProt P80192)", "remaining binding": "77%"}
{"target": "Serine/threonine-protein kinase tousled-like 1 (TLK1, Homo sapiens, UniProt Q9UKI8)", "remaining binding": "100%"}
{"target": "Serine/threonine-protein kinase mTOR (MTOR, Homo sapiens, UniProt P42345)", "remaining binding": "100%"}
{"target": "Serine/threonine-protein kinase D1 (PRKD1, Homo sapiens, UniProt Q15139)", "remaining binding": "71%"}
{"target": "Mitogen-activated protein kinase kinase kinase 10 (MAP3K10, Homo sapiens, UniProt Q02779)", "remaining binding": "100%"}
{"target": "G protein-coupled receptor kinase 4 (GRK4, Homo sapiens, UniProt P32298)", "remaining binding": "100%"}
{"data": "Series 2", "target": "Tyrosine-protein kinase ITK/TSK (ITK, Homo sapiens, UniProt Q08881)", "observed": "enzyme activity", "action": "inhibitor", "tested at": "0.5 µM", "reference": "control", "sequence of UniProt Q08881 (whole entry, looked up)": "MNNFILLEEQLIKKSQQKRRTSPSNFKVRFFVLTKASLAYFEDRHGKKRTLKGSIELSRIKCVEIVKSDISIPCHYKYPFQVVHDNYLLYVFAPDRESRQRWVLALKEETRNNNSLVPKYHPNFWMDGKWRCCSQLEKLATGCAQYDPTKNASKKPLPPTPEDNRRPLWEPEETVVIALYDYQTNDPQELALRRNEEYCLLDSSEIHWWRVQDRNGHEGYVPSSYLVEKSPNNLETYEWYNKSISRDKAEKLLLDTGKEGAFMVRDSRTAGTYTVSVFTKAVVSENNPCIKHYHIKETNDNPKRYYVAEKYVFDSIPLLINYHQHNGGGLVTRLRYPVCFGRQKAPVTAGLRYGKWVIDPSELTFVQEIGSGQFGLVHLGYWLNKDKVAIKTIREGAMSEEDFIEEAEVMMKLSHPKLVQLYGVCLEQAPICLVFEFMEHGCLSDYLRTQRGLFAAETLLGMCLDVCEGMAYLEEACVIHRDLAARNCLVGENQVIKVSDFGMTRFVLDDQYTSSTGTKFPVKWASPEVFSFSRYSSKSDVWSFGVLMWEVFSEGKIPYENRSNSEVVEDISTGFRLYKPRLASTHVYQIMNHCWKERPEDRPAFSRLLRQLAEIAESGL"}
{"SMILES": "Cn1sc(=O)n(Cc2ccccc2)c1=O", "remaining activity": "93.2%"}
{"SMILES": "CCOC(=O)c1c(C)[nH]c(/C=C2\\C(=O)Nc3ccccc32)c1C", "remaining activity": "86.3%"}
{"SMILES": "COc1cc2ncnc(Nc3ccc(F)c(Cl)c3)c2cc1OCCCN1CCOCC1", "remaining activity": "99.9%"}
{"SMILES": "Cc1ccc(NC(=O)c2ccc(CN3CCN(C)CC3)cc2)cc1Nc1nc(-c2cccnc2)cs1", "remaining activity": "98.7%"}
{"SMILES": "N#CC(C#N)=C(N)/C(C#N)=C/c1ccc(O)cc1", "remaining activity": "98.7%"}
{"SMILES": "CO[C@H]1C[C@@H]2CC[C@@H](C)[C@@](O)(O2)C(=O)C(=O)N2CCCC[C@H]2C(=O)O[C@H]([C@H](C)C[C@@H]2CC[C@@H](O)[C@H](OC)C2)CC(=O)[C@H](C)/C=C(\\C)[C@@H](O)[C@@H](OC)C(=O)[C@H](C)C[C@H](C)/C=C/C=C/C=C/1C", "remaining activity": "92.5%"}
{"SMILES": "O=C(CCCc1ccc(-c2ccccc2F)cc1)Nc1ccc(O)cc1", "remaining activity": "85%"}
{"data": "Series 3", "SMILES": "C[C@H]1CC[C@H](n2c3cnccc3c3cnc(Nc4ccc5c(n4)CCN(C(=O)CO)C5)nc32)CC1", "tested at": "1 µM"}
{"target": "Dual specificity mitogen-activated protein kinase kinase 2 (MAP2K2, Homo sapiens, UniProt P36507)", "observed": "cell-free assay", "method": "competition with immobilised ligand", "remaining binding": "61%"}
{"target": "Serine/threonine-protein kinase MRCK beta (CDC42BPB, Homo sapiens, UniProt Q9Y5S2)", "observed": "cell-free assay", "method": "competition with immobilised ligand", "remaining binding": "91%"}
{"target": "Dual specificity protein kinase TTK (TTK, Homo sapiens, UniProt P33981)", "observed": "binding", "method": "competition with immobilised ligand", "remaining binding": "4.6%"}
{"target": "Ribosomal protein S6 kinase alpha-6, N-terminal kinase domain (RPS6KA6, Homo sapiens, UniProt Q9UK32)", "observed": "binding", "method": "competition with immobilised ligand", "remaining binding": "40%"}
{"target": "Leukocyte tyrosine kinase receptor (LTK, Homo sapiens, UniProt P29376)", "observed": "binding", "remaining binding": "100%"}
{"target": "Ephrin type-A receptor 5 (EPHA5, Homo sapiens, UniProt P54756)", "observed": "cell-free assay", "method": "competition with immobilised ligand", "remaining binding": "100%"}
{"target": "Serine/threonine-protein kinase SBK1 (SBK1, Homo sapiens, UniProt Q52WX2)", "observed": "binding", "method": "competition with immobilised ligand", "remaining binding": "91%"}
{"target": "Non-receptor tyrosine-protein kinase TYK2, JH1 (TYK2, Homo sapiens, UniProt P29597)", "observed": "cell-free assay", "method": "competition with immobilised ligand", "remaining binding": "47%"}
{"target": "Protein-tyrosine kinase 6 (PTK6, Homo sapiens, UniProt Q13882)", "observed": "binding", "method": "competition with immobilised ligand", "remaining binding": "92%"}
{"data": "Series 4", "organism": "Sarcocystis neurona", "observed": "parasite growth", "tested at": "10 µM", "time": "96 h", "setting": "second screen", "reference": "untreated"}
{"Structure (SMILES)": "COc1ccc(-c2oc3c(CC=C(C)C)c(O[C@@H]4O[C@H](CO)[C@@H](O)[C@H](O)[C@H]4O)cc(O)c3c(=O)c2O[C@@H]2O[C@@H](C)[C@H](O)[C@@H](O)[C@H]2O)cc1", "log2 fold change": 0.21}
{"Structure (SMILES)": "NC1CCN(c2nc3c(cc2F)c(=O)c(C(=O)O)cn3-c2ccc(F)cc2F)C1 (stereo not drawn)", "log2 fold change": 0.00199}
{"Structure (SMILES)": "Oc1ccc(/C=C/c2cc(O)cc(O)c2)cc1", "log2 fold change": 0.2}
{"Structure (SMILES)": "C#C[C@]1(OC(C)=O)CC[C@H]2[C@@H]3CCC4=CC(=O)CC[C@@H]4[C@H]3CC[C@@]21C", "log2 fold change": 0.2}
{"Structure (SMILES)": "O=c1c(O[C@@H]2O[C@H](CO)[C@@H](O)[C@H](O)[C@H]2O)c(-c2ccc(O)c(O)c2)oc2cc(O)cc(O)c12", "log2 fold change": 0.16}
{"Structure (SMILES)": "Cc1ccc(N(CC2=NCCN2)c2cccc(O)c2)cc1", "log2 fold change": 0.29}
{"Structure (SMILES)": "COc1c2occc2cc2ccc(=O)oc12", "log2 fold change": 0.25}
{"Structure (SMILES)": "COc1cc(C)c(Cc2cnc(N)nc2N)cc1OC", "log2 fold change": -0.87}
{"Structure (SMILES)": "CCN1CCC[C@H]1CNC(=O)c1c(O)c(Cl)cc(Cl)c1OC", "log2 fold change": 0.35}
{"Structure (SMILES)": "NS(=O)(=O)c1cc(C2(O)NC(=O)c3ccccc32)ccc1Cl (stereo not drawn)", "log2 fold change": 0.21}
{"Structure (SMILES)": "CC(C(=O)O)c1ccc(CC2CCCC2=O)cc1 (stereo not drawn)", "log2 fold change": 0.22}
{"note": "Repeated from above (series 4):"}
{"Structure (SMILES)": "O=c1c(O[C@@H]2O[C@H](CO)[C@@H](O)[C@H](O)[C@H]2O)c(-c2ccc(O)c(O)c2)oc2cc(O)cc(O)c12", "log2 fold change": 0.16}
{"Structure (SMILES)": "Cc1ccc(N(CC2=NCCN2)c2cccc(O)c2)cc1", "log2 fold change": 0.29}
